Measured values pooled from the literature.
A part holds a random share of what one study measured. Substitutions count along the parent as printed.

Study 1
Target: CCNB3, cyclin fold, Cln2 fusion (human)
Method: yeast growth competition, sequencing
Matrix: yeast
Setting: weak parent motif
Baseline: not given
Direction: higher = stronger binding
Starting sequence: PKN2 docking peptide (human); VSAVQKLDFSDTM; partner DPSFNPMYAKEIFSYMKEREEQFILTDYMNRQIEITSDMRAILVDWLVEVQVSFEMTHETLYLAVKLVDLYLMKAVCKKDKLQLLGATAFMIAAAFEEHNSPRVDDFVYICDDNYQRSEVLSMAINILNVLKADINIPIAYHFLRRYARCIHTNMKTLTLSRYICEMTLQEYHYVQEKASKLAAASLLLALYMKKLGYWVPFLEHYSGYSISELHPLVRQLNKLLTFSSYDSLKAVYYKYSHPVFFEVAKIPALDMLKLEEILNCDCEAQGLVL
Substitution	normalised enrichment score
D11C	0.522
A3G	-0.0314
V4K	0.232
V1W	0.295
K6E	0.0813
F9P	0.00292
T12H	0.288
V4R	-0.111
K6W	0.805
L7Q	-0.0768
M13V	0.198
T12D	-0.223
S2W	0.334
S10N	-0.186
L7G	0.0266

Study 2
Target: RNA binding protein fox-1 homolog 2, RRM domain, GST-SBP tag (RBFOX2, Homo sapiens, UniProt O43251-10, residues 100-194)
Method: RNA Bind-n-Seq
Molecule type: RNA
Matrix: in vitro
Tested at: 365 nM
Setting: natural RNA segment, single round, ends assumed
Baseline: no-protein control
Direction: higher = stronger binding
Shared flanks, not repeated: GGGAGUUCUACAGUCCGACGAUC … UGGAAUUCUCGGGUGCCAA
Residues (chain): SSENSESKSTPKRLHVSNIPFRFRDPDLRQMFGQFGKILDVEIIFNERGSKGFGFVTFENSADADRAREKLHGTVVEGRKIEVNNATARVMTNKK
Strand	RBNS enrichment (R)
UUGGAGUGUGCCUGCCCCCCAGCCUGGAACCCUCUGAUCAACUUGCUGGGACCUAUAACGUCUUAGGUGCAACAAGGACCCUACCAGAGCUCCUGGGUGGCUUUGUGUGA	0.375
CACACCUGUAAUCCCUGCACUUUGGGAGGCCAAGGUGGGAGGAUCAGUUGAGCCCCAGAGUUCAAGACCAGCCUGGGCAAUGUAGUAAGACCCCCAUCGCUACAAAAAAU	1.27
GCCACACUCCCUUAACUGGGAAGUACCUGCCACGUAGGGCAUUUCUGCUGCCUAUUUCCAGCCAGCGGCUGCAUGGUUUGAAGUUCCUCCGUUGUGGUCAGAGGAACUCU	6.11
GAAACUUGCUGUGUCCAGUGCUGCUUGAAGUGCUAAUAAUGUUAAAGACACUUAAGAAGAUGAAAUAAUAUUCAAAUUUCAUUUUUUCCUUUUUCCAUUUAUCUGUGGAA	0.542
GCCUUCCCUGUCAGAAGGGGGUUGUGGCAAAAGCCACAUUACAAGCUGCCAUCCCCUCCCCGUUUCAGUGGACCCUGUGGCCAGGUGCUUUUCCCUAUCCACAGGGGUGU	0.203
CGGGGGAGAUUCUGACUCUUAAUCUGUAUUGUGAGAAAAUCCCAGCAAGUUCCAUGAUAUUAAAUCCAGGUCUGCAUUGGCCCGGGGCAAGAGUUUAACAUCUUCGGCCC	1.27
UGCCCACUGUUGGCGGCUCUGUGUGUUAAUAGGCUAGGGAGAGGAGUGUCUGCUGCCGCUUGCUUCCUGCCACGUUCUUGGAGAGGUGUCAAGUUUGGUAUGGCCAGGGA	0.31
CGUAAGCAUAUACAAUCCACUUCCCACUAAGAAUUAGGGUCAAAGACAUUCUAUUUGAACACUUGCAAUUACCUAGAUCUAGUUGGCCUUUGGUUGAUAGAUCCUCUGCC	0.653
UUCUACUGUGUCUAGGAUUGUUGGGAUUGUACAUAUGGUACUCUUUCAUAAAUGAUAAAUGAUUCUGAAUGUUAGUGUUUUAUGUUCAUAUAGGAAAUAUUUUCAUUGAG	0.565
GCGUUGGCCUAACACUGGCUGUUUCGAUAGUGUGGGGGCUACAUGUGCCUGUAGGGGUCAGGCCUUGGCCCUGUGUGCGUGUGAGCCUGUGUGUGUAUGAGUGUGUGUGU	3.19
ACGCUUCCAGCCCGGAGUGCUGGAGGCCCCCUAGCCCAGACAGACAUCUCUGCACCCUGGGGCCUGGACCUGCCUCCUGCCUGCCCCUCUCCCGCCAGACUGUUAGAAAA	0.487
CCUUCAGGCCUGAUGCCUCAGGCCUGAUUCCCUCCUUUUAAAGCAAUACCUUCAGGUCUGCCAUGCCAUCAGCCAGCCUGGUUCCUUCUGAGGGCAACCUGGGUCUGGUG	0.256

Study 3
Target: ABI1, truncated, D143A, DHFR fusion (Arabidopsis thaliana)
Method: DHFR PCA, deep sequencing
Matrix: yeast
Setting: methotrexate growth selection, single substitutions
Together with: (+)-ABA 710 µM
Baseline: wild-type fitted maximum
Direction: higher = stronger binding
Starting sequence: PYL1, truncated, DHFR fusion (Arabidopsis thaliana); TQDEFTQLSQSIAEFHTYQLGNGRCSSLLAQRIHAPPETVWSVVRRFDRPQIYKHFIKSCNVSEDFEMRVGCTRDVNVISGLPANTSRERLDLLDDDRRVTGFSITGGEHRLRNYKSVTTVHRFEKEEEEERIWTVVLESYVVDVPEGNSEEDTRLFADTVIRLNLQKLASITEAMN; partner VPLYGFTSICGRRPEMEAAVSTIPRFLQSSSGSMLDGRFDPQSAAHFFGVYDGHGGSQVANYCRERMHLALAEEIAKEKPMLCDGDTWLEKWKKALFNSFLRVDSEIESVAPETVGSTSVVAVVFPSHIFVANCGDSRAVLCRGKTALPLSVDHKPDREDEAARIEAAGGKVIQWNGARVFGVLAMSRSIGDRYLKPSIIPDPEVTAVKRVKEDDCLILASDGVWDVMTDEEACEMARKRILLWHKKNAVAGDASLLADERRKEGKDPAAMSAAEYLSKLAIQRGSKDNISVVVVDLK
Substitution	relative binding score
R74S	7.05%
D144Y	65%
L156C	103%
I79V	106%
R45H	68.6%
I162W	-14.1%
Q7E	104%
E109L	93.5%
R90W	41.6%
R123L	103%
E151G	97.7%
T106D	94.9%
P83L	13.2%
F47C	-1.86%
C72A	98.3%
L8I	85.4%

Further values, each from its own experiment
Molecule	target	assay	system	conditions	scale	measurement	result
PhoQ, residues 284 288 289 292 302 303 AGHLVA	PhoP, residues 12 14 15 18 19 IQSYL (Escherichia coli, UniProt P23836)	Sort-seq, item: YFP reporter	E. coli	PhoQ-PhoP variant library, together with: 10 µM Mg2+	baseline: high Mg2+ state, higher = stronger signaling	fold induction	9.18

Excerpt of the above (study 2):
Strand	RBNS enrichment (R)
CGGGGGAGAUUCUGACUCUUAAUCUGUAUUGUGAGAAAAUCCCAGCAAGUUCCAUGAUAUUAAAUCCAGGUCUGCAUUGGCCCGGGGCAAGAGUUUAACAUCUUCGGCCC	1.27
GCGUUGGCCUAACACUGGCUGUUUCGAUAGUGUGGGGGCUACAUGUGCCUGUAGGGGUCAGGCCUUGGCCCUGUGUGCGUGUGAGCCUGUGUGUGUAUGAGUGUGUGUGU	3.19
UUGGAGUGUGCCUGCCCCCCAGCCUGGAACCCUCUGAUCAACUUGCUGGGACCUAUAACGUCUUAGGUGCAACAAGGACCCUACCAGAGCUCCUGGGUGGCUUUGUGUGA	0.375
CGUAAGCAUAUACAAUCCACUUCCCACUAAGAAUUAGGGUCAAAGACAUUCUAUUUGAACACUUGCAAUUACCUAGAUCUAGUUGGCCUUUGGUUGAUAGAUCCUCUGCC	0.653
